Measurements pooled from the literature.
A part holds a random share of what one study measured. Substitutions count along the parent as printed.

Sample 1
Target: Prothrombin, mature alpha-thrombin (F2, Homo sapiens, UniProt P00734)
Method: aptamer microarray, sandwich
Form: DNA with 2'F-ANA
Sample: in vitro
Tested at: 200 nM
Notes: whole 15-mer aptamer, many near background
Together with: Cy3 exosite-II aptamer, 400 nM
Reading: higher = stronger binding
Strand: GGTTGGTGTGGTTGG
For `2'F-ANA at 1 4 8 12 14 15`, “mean fluorescence intensity” read 65.6 a.u.
For `2'F-ANA at 3 9 11 13 14`, “mean fluorescence intensity” read 565 a.u.
`2'F-ANA at 1 2 4 8 9 10 12 15`: “mean fluorescence intensity” 57.9 a.u.
For `2'F-ANA at 2 3 5 8 11 12 15`, “mean fluorescence intensity” read 183 a.u.
`2'F-ANA at 1 3 4 5 8 12 13 15` — result for “mean fluorescence intensity”: 89.9 a.u.
For `2'F-ANA at 3 4 8 11 13 15`, “mean fluorescence intensity” read 588 a.u.
Under “mean fluorescence intensity”, `2'F-ANA at 1 2 3 4 5 11 12 15` is recorded as 86.6 a.u.
`2'F-ANA at 1 2 5 7 8 10 12` — result for “mean fluorescence intensity”: 48.4 a.u.
Under “mean fluorescence intensity”, `2'F-ANA at 3 4 11` is recorded as 670 a.u.
Under “mean fluorescence intensity”, `2'F-ANA at 2 5 7 8 10 12 13 14 15` is recorded as 49.9 a.u.
For `2'F-ANA at 1 2 5 7 8 10 13 14`, “mean fluorescence intensity” read 46.7 a.u.

Sample 2
Target: Ras GTPase-activating protein-binding protein 1, RRM domain (G3BP1, Homo sapiens, UniProt Q13283)
Chain of UniProt Q13283 (whole entry, looked up): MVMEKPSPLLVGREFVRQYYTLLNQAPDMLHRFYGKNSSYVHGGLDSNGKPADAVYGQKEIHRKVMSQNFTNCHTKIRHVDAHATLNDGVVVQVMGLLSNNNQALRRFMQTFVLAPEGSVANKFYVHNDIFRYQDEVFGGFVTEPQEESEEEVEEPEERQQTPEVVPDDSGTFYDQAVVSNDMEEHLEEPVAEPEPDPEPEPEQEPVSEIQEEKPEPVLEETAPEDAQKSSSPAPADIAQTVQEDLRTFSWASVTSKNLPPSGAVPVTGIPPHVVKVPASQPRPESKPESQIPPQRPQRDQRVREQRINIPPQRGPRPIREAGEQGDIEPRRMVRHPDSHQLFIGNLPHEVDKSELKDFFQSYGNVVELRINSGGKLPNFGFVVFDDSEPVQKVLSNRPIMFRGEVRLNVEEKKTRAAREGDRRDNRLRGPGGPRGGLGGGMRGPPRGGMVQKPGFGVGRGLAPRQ
Method: RNA Bind-n-Seq
Form: RNA
Sample: in vitro
Tested at: 1 µM
Notes: whole 134-nt RNA, ends assumed
Together with: 150 mM KCl
Relative to: input library
Reading: higher = stronger binding
The log2 enrichment of `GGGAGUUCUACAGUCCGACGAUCGUCCUGUGCUACACAUCGUAUGUACCGAAUCGGGAAAAAAAGGGAAAGGGAAAAAGGGAAAGUAUUAUGUUACGCCGUUCGGAUCUGCACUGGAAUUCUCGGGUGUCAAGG` is reported as 0.181.
For `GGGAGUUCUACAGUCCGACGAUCCCUGUGCUACACAUCGUAUGUACCGAAUCGGGGUUUUUUGGGGUUUUUUGGGUUUUUUGGAAAGUAUUAUGUUACGCCGUUCGGAUCUGCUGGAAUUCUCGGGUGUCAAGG`, the log2 enrichment was -0.165.
`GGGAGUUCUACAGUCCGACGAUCCAACUUUAGAGGAGGAUCUGAUGGAUAUGGCAGUGGACGUGGAUUUGGGGAUGGCUAUAAUGGGUAUGGAGGAGGACCUGGAGGUGGCAAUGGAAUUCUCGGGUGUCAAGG` gave a log2 enrichment of -0.738.
For `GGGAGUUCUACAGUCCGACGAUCUCAAGUCCUGUGCUACACAUCGUAUGUACCGAAUCGGGGAAGGGAAGGGGAAGGGAAAGUAUUAUGUUACGCCGUUCGGAUCUGCACUUCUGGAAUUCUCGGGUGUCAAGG`, the log2 enrichment was 0.818.
With `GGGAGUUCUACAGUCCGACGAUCUGCAUUUCCUGAGCUGAAGAAGGACCCAGACAUGGUGAAGGACAUCAUUAAUGAAGAAGAGGUGCAGUUUCUCAAGACUCUCAGCAGAGGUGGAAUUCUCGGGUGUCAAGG` the log2 enrichment was -0.178.
`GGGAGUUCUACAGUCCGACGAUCCAAGUCCUGUGCUACACAUCGUAUGUACCGAAUCGGGAAAAAAAGGGAGGGUGGGAAAGUAUUAUGUUACGCCGUUCGGAUCUGCACUUCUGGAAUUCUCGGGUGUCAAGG` gave a log2 enrichment of 0.927.
The log2 enrichment of `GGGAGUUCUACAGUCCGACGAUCCCUCAAGUCCUGUGCUACACAUCGUAUGUACCGAAUCGGUUGGUUGGGGUUGGAAAGUAUUAUGUUACGCCGUUCGGAUCUGCACUUCCAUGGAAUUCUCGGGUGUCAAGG` is reported as -0.253.
For `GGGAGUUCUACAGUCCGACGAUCUGGGAGGUGGAUUUUGUUUAUUUUUUUAGCUCAUUUCCAGGGGUGGGAAUUUUUUUUUAAUAUGUGUCAUGAAUAGAGUUGUUUUUGAAAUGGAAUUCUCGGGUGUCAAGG`, the log2 enrichment was 0.887.
With `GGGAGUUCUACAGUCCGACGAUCGUCCUGUGCUACACAUCGUAUGUACCGAAUCGGGGCCCCCGGCCCCCGGCCCCCGGGGAAAGUAUUAUGUUACGCCGUUCGGAUCUGCACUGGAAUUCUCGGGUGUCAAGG` the log2 enrichment was -0.551.

Sample 3
Target: CCNB2, cyclin fold, Cln2 fusion (human)
Method: yeast growth competition, sequencing
Sample: yeast
Notes: weak parent motif
Relative to: not given
Reading: higher = stronger binding
Starting sequence: E2F1 docking peptide (human); PPVKRRLDLETDH
`PPVPRRLDLETDH [K4P]`: “normalised enrichment score” -0.236.
For `PPVKRREDLETDH [L7E]`, “normalised enrichment score” read 0.014.
`PPVKRRLDLQTDH [E10Q]`: “normalised enrichment score” 0.483.
`PPVKGRLDLETDH [R5G]` — result for “normalised enrichment score”: -0.103.
Under “normalised enrichment score”, `PPVWRRLDLETDH [K4W]` is recorded as -0.282.
`PPVKRRLDLEFDH [T11F]` — result for “normalised enrichment score”: 2.25.
`PPVKRRLDLETDR [H13R]` — result for “normalised enrichment score”: 0.0836.
`PPVKSRLDLETDH [R5S]`: “normalised enrichment score” -0.486.
For `PPVKRRLDLETDV [H13V]`, “normalised enrichment score” read 0.606.
`PPVKYRLDLETDH [R5Y]`: “normalised enrichment score” 0.151.
Under “normalised enrichment score”, `PPRKRRLDLETDH [V3R]` is recorded as 0.394.
`PPVKRRLQLETDH [D8Q]` — result for “normalised enrichment score”: 0.507.

Mixed results
The fold induction of `PhoQ, residues 284 288 289 292 302 303 SLSVQF` is reported as 7.51 (PhoP, residues 12 14 15 18 19 TPLRH (Escherichia coli, UniProt P23836); Sort-seq, measured: YFP reporter; E. coli; PhoQ-PhoP variant library, together with: 10 µM Mg2+; relative to: high Mg2+ state, higher = stronger signaling).

Some of these lines once more (sample 1):
`2'F-ANA at 1 2 5 7 8 10 12` — result for “mean fluorescence intensity”: 48.4 a.u.
Under “mean fluorescence intensity”, `2'F-ANA at 1 2 3 4 5 11 12 15` is recorded as 86.6 a.u.
Under “mean fluorescence intensity”, `2'F-ANA at 2 5 7 8 10 12 13 14 15` is recorded as 49.9 a.u.
For `2'F-ANA at 1 4 8 12 14 15`, “mean fluorescence intensity” read 65.6 a.u.
